Published values from different studies.
Each numbered part is a random draw from the data of one study; scales do not carry over between parts.

Set 1 — method: RNA Bind-n-Seq; form: RNA; medium: in vitro; tested at: 1 µM; notes: whole 134-nt RNA, ends assumed; added: 150 mM KCl; baseline: input library; reading: higher = stronger binding
Target: Ras GTPase-activating protein-binding protein 1, C-terminal RGG region (G3BP1, Homo sapiens, UniProt Q13283)
Sequence of UniProt Q13283 (whole entry, looked up): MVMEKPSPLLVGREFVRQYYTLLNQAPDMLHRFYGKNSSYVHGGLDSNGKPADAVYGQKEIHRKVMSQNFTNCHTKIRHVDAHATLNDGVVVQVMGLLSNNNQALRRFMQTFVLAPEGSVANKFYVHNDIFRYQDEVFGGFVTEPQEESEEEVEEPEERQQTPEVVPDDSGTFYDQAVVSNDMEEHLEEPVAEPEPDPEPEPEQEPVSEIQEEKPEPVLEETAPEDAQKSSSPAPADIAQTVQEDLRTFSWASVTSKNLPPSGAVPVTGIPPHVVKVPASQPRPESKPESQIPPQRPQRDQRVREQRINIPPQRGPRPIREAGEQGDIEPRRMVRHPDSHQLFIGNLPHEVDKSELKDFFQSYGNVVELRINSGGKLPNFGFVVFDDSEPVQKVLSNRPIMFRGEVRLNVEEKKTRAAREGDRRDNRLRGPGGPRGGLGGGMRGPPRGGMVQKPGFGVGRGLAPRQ
Shared flanks, not repeated: GGGAGUUCUACAGUCCGACGAUC … UGGAAUUCUCGGGUGUCAAGG
Oligonucleotide	log2 enrichment
UGGGCAAUGUGUCGGCUGCAUGCACGAGCCAGGAACUGCGCAGCCUCUUCGAGCGCCGCGGACGCGUCAUCGAGUGUGACGUGGUGAAAG	-1.64
UUUGCAGGAUUAAUCACUCCUGAAGAUCGGAAAUAUGGAACAACAAAUCUUCACUUAGAUGUAUCUGAUGCAGCUAAUGUCAUGGUCUAU	-2.32
UCAAGUCCUGUGCUACACAUCGUAUGUACCGAAUCGGUUUGGUUUGGGUUUGGGGAAAGUAUUAUGUUACGCCGUUCGGAUCUGCACUUC	-0.946
GUCCUGUGCUACACAUCGUAUGUACCGAAUCGGGGAGGGGUUUUUUUGGGGUUUGGGGAAAGUAUUAUGUUACGCCGUUCGGAUCUGCAC	1.43
UCAAGUCCUGUGCUACACAUCGUAUGUACCGAAUCGGGGAAGGGGAAGGGAAGGGAAAGUAUUAUGUUACGCCGUUCGGAUCUGCACUUC	2.21
UGGCAGCGGCCAUGGACCGCUUCGUUUGGACCAGCGGCCUCCUGGAGAUCAACGAGACCCUGGUGAUCCAGCAGCGCGGGGUGCGAAUCU	-1.24
CUCAAGUCCUGUGCUACACAUCGUAUGUACCGAAUCGGUUGGGUUGGGGUUGGAAAGUAUUAUGUUACGCCGUUCGGAUCUGCACUUCCA	-0.599
CCUGUGCUACACAUCGUAUGUACCGAAUCAAAUUUUUUUAAACCCCCCCAAAUUUUUAAAAAAGUAUUAUGUUACGCCGUUCGGAUCUGC	-0.804
AGUCCUGUGCUACACAUCGUAUGUACCGAAUCGGGGAGGGGAAAGGGGAAAAAGGGGAAAGUAUUAUGUUACGCCGUUCGGAUCUGCACU	1.56
UAACUUUAGAGGAGGAUCUGAUGGAUAUGGCAGUGGACGUGGAUUUGGGGAUGGCAAUAAUGGGUAUGGAGGAGGACCUGGAGGUGGCAA	-0.909
CUCAAGUCCUGUGCUACACAUCGUAUGUACCGAAUCGGGAAGGGAAGGAAGGGAAAGUAUUAUGUUACGCCGUUCGGAUCUGCACUUCCA	-0.603
AGUCCUGUGCUACACAUCGUAUGUACCGAAUCGGGGUUUUUGGGGUGGGGUUUGGGGAAAGUAUUAUGUUACGCCGUUCGGAUCUGCACU	1.23
UCCUCAAGUCCUGUGCUACACAUCGUAUGUACCGAAUCGGAGGUGGAAAGGAAAGUAUUAUGUUACGCCGUUCGGAUCUGCACUUCCAGC	-1.24
CACAGACAACACGCACCCACACAGACACAGAGGGAAGGGGUUGGGAUGGGGACAGGGUGCACAGCAGGGCGGGGUAGGACCCCGGCCCCU	-1.22

Set 2 — method: RNA Bind-n-Seq; form: RNA; medium: in vitro; tested at: 365 nM; baseline: no-protein control; reading: higher = stronger binding
Target: RNA binding protein fox-1 homolog 2, RRM domain, GST-SBP tag (RBFOX2, Homo sapiens, UniProt O43251-10, residues 100-194)
Notes: natural RNA segment, single round, ends assumed
Shared flanks, not repeated: GGGAGUUCUACAGUCCGACGAUC … UGGAAUUCUCGGGUGCCAA
Target sequence (chain): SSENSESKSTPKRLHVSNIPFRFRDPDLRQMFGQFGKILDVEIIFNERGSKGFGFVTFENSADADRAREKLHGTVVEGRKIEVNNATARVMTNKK
Oligonucleotide	RBNS enrichment (R)
AUAAGCACAGACAUGUGGAAAGUGCCUGACACAAAGCAGGUGCUCAAUAAAAGAGAGCUAUUGAAGUGUAUUUGUUGUUUUCUUGCUUAAAAACAAGGAUUCUUGGGGGU	0.477
AUGGCUGCUGUAUAUUUACUAUAUGGAGUUCUGAGUUAAAUACCAUCCUUAAUACUGGGAACAGAAUACAACCCAUAUAAAUCAGAUGCAGGUGGUAGUCACAUCACCAG	0.42
CUCCAUCUGAUCGUCCUUUCAGUUUCCCCUUCACCACUGGAUCUCGAGGAGGAGAUGGCCUAGUGUUACGGCUCGAGACAGGAGGCCAGCCCAGGGGGUUCUGCUUAUGU	0.357
UGAGAAAUGUAUGCGUUUGUAAACUUGCCAUGGGUCCGAAUAUUUUCAAGCCAUGUAAUCCAUUAAUUUUGUGGGAAGCUUAAUAAAUCAGAAGCUUUUAUUUCUUCUUA	1.16
ACUUGACACUUUGGGAGGCCAAGCUGGGCAGAUCACCUGAGGUCAGGAGUUUGAGACCAGCCUGGCCAACAUGGUGAAACCCCAUCUCUACUAAAAAAAAUACAAAAAUU	0.31
CAUUUAAGUUUGGCCACAUUUCAAAGAAAAUUGAAGUCCCAGCCUCAGAGAGUGUCGGUGGUUAAAGUAAGAGAACAUUGGUUGGUCAGCAACGUGAUCUGUAACUUGAU	0.989
UCAGUGCCUUGGAGCAGAAAGCCAGGGUCCUGAGUGGCUGAAAUAAAAGCCUCUGGUGGAACCUGCAGCGCUUUCCUUCCUUUCUUUACCGAAAAGAAGUCUUUCUUGUA	0.267
AUUAUCUGAGGAAACUCAAUGGGUAUGAAGAUGAUCAAUUCUGUAAGCCUUGUGGCUGUGCUGUCAUGCCUAGGAUAGCAUUCAACAUAACUUUAACAAAAUUAAACAUU	1.33
CUUCGGGAAUGUUUAAGAUCGAUCAGUAAAUAACUUCCCAGAAGACCACCCUAUGUCUAUUAAGCCUGAGGGCAGGGGAUCCUGAGCACACUUUGGGCAGAAAUAAGUCA	1.44
CCUUUUUUAAAAACGGGUUUGAACUCCUGUUUAGCCAAGAGUGAUCUUGAGCUGGUCUCCUGCCUCCACCCCCUGAGUGCUGGGGUUACAGGUGAUAGCUGGUCUCCUGC	0.243
AGAAGAGAUGGGCUCAGCCUGAACUAGUUGUCUGUGAAAAGACUCCUAACGUUGCGUUAACAUAUUUGUAUAUAUGCUGGUCUCAACUUUGGAUCUAGACCUGGGGCCAG	0.663
UCCUCUGGACUCCCAAGGAGGCUGGUGCCAGGGAGAUGCCCUCACCCACCCCCAUUUGCACUGAGAAGAGAAACUAUGGAGUUUUGUCUCCAAGAAUAAAGAUAGAGAGU	0.631

Set 3 — method: protein binding microarray; form: double-stranded DNA, one strand shown; medium: in vitro; tested at: not given; baseline: not given; reading: higher = stronger binding
Target: Histone acetyltransferase KAT6A, winged helix 1, GST fusion (KAT6A, Homo sapiens, UniProt Q92794, residues 1-85)
Notes: 8-mer, flanks averaged, mean of 2 arrays, mostly near background
Construct (chain): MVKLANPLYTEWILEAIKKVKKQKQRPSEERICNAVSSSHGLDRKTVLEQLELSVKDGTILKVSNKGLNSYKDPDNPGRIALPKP
Oligonucleotide	E-score
AAACTCGC	-0.00919
ATTAGGCC	-0.0458
CAACTTGA	-0.248
ACGGTGTA	0.245
AACCCTGC	-0.125
AAGCCCGA	0.105
CCGCCCAG	0.158
ACTCAAAG	-0.138
CGAAGCTA	-0.121
TATCACCA	-0.0812
CAACACGC	-0.0118
ATCCTACC	-0.0253
GTTAATAA	-0.0395
ACCCGACT	0.0742
AATGGGAA	-0.352
AGCACACA	-0.254
ACTATTTA	-0.0997
ACCCGTAT	0.31
ATCTATAA	-0.0822
CACTACTC	-0.0681
GGATATTA	-0.0349
AATCCGTG	0.22
TAGTCGGA	0.0286
CCATACTA	-0.0848
AATTGACT	-0.222

Set 4 — method: protein-binding microarray; form: double-stranded DNA, one strand shown; medium: in vitro; tested at: 2200 nM top; notes: 60-bp whole probe; added: salmon DNA 0.4 mg/ml; baseline: random background probes; reading: higher = stronger binding; shared flanks, not repeated: GCCTAGCAC … GTCTTGATTCGCTTGACGCTGCTG
Target: Interferon regulatory factor 7, full length, phosphomimetic (IRF7, Homo sapiens, UniProt Q92985, residues 1-503, S471D/S472D/S475D/S476D/S477D/S483D/S484D/S487D)
Construct (chain): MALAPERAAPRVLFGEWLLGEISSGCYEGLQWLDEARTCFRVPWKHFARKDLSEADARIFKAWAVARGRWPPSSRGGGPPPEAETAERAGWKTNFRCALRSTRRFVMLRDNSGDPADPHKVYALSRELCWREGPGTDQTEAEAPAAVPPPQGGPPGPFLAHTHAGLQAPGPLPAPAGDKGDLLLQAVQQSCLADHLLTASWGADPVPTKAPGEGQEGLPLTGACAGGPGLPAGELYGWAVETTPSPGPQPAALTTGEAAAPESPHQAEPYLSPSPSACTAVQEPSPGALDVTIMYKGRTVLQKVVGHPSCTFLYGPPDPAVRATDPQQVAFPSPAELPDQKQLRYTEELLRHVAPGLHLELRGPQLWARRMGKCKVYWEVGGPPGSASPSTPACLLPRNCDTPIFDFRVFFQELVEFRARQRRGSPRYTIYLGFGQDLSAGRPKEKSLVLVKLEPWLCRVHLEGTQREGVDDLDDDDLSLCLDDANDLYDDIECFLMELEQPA
Oligonucleotide	fitted relative affinity
TTAGGTATCCTACTGCTGTAGTGCTAG	0.383 z-score
GACGGTATCGGTCTCGGGTCGTGCTAG	0.499 z-score
TTAGATATCAGTTTCGATTTGTGCTAG	11.8 z-score
GACGGACTGCGTATCCTGACGTGCTAG	0.314 z-score
TCAAATTTCCATTTTCTACTGTGCTAG	3.16 z-score
GACTGTTTCCTTATCCTGACGTGCTAG	3.12 z-score
TCACATTTGGAAAATGTAACTGTGCTA	0.584 z-score
TTAGGTTCCCTCTTCCTTTAGTGCTAG	1.63 z-score
TTAGATTTCAGTTCCAATTAGTGCTAG	1.4 z-score
TCATCTTCACATATAATACTGTGCTAG	1.48 z-score
GACTCTTTCTGTCAGTTTTGGTGCTAG	1.44 z-score
TCATATTTAGAACTTCTCACTGTGCTA	0.519 z-score
TACTGCTGGAGCTCAAGAGCGTGCTAG	-0.48 z-score
TTCACTCTCTGCTTGTGTCTGTGCTAG	2.12 z-score
GACCATCTCAGTTTCGAGACGTGCTAG	3.67 z-score
GACGGTATCGACCTTCGGGACGTGCTA	-0.122 z-score
TTAGGTATCCTTTTCTTTTAGTGCTAG	1.53 z-score
TCACTCATGGCTTTGTAGATGTGCTAG	0.774 z-score
TTAGGACTGGGGTTTCGGTCAGTGCTA	0.461 z-score
ATTCCTCTCACCTCGGCCTCGTGCTAG	1.72 z-score

Set 5 — method: universal PBM; form: double-stranded DNA, one strand shown; medium: in vitro; tested at: 600 nM; reading: higher = stronger binding
Target: Sal-like protein 4, full length isoform A (SALL4, Homo sapiens, UniProt Q9UJQ4, residues 1-1053)
Sequence of UniProt Q9UJQ4 (whole entry, looked up): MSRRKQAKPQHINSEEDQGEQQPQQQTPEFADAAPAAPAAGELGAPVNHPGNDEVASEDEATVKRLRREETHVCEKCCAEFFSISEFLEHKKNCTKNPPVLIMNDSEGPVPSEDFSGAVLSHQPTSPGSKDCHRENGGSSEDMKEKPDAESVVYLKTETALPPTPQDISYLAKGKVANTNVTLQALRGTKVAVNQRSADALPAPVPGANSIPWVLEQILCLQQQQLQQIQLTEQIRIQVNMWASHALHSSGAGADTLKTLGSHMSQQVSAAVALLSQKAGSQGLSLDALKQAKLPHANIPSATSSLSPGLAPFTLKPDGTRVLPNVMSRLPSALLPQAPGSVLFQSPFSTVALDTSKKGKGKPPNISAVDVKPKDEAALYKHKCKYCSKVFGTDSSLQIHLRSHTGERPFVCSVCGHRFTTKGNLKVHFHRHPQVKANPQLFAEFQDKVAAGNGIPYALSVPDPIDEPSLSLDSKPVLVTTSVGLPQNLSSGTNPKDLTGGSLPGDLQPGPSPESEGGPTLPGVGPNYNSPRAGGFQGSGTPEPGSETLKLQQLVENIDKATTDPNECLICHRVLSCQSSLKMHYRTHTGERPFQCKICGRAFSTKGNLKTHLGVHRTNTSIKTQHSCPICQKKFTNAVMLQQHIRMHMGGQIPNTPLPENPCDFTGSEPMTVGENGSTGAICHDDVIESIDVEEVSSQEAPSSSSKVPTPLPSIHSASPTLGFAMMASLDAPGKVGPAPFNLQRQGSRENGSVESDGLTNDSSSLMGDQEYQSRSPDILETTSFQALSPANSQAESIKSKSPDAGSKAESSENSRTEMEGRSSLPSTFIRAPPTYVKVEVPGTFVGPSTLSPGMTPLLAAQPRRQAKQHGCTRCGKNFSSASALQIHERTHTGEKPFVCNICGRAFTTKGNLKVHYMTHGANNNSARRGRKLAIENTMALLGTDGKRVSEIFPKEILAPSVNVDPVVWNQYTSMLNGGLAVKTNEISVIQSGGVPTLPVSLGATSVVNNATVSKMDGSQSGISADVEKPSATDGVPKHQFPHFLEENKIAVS
Notes: 8-mer, flanks averaged, mean of replicates
Oligonucleotide	E-score
ATGACGCC	-0.154
CTCACGAC	-0.183
ATCCGAGC	-0.085
TCAACAAA	0.19
GTTCCGCA	-0.0715
CGATGACG	-0.19
CATGATAC	0.179
CAGGATAG	-0.016
TGCAGCAA	0.0757
CAGTCATC	-0.165
GCGTAAAA	0.149
AGATCCAG	-0.161
CAAAGTCC	-0.25
ACGAACCA	0.0784
CGTTCTAC	-0.0525
ACACCTCG	-0.0956
CGGGGAAA	-0.1
GCAAGAAA	0.0828
